Measured values gathered from unrelated publications.
Numbered parts are unrelated; each lists some results of a single study.

Sample 1
Target: RNA binding protein fox-1 homolog 2, RRM domain, GST-SBP tag (RBFOX2, Homo sapiens, UniProt O43251-10, residues 100-194)
Technique: RNA Bind-n-Seq
Form: RNA
Medium: in vitro
Concentration: 365 nM
Setting: natural RNA segment, single round, ends assumed
Relative to: no-protein control
Reading: higher = stronger binding
Target sequence (chain): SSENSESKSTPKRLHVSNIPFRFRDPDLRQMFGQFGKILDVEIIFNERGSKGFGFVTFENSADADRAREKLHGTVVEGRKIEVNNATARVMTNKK
Strand	RBNS enrichment (R)
GGGAGUUCUACAGUCCGACGAUCCCUGCCAGUCAAGCAAUGAAUCCCAGCAGCCAUGGCCAGACAAUUCCUGUUCAGACUUUUCCUGAUGACAAUAGUAUCGAGGACACACCAUCAAAAUGUUACUGCCGGUUUGGAAUUCUCGGGUGCCAA	0.46
GGGAGUUCUACAGUCCGACGAUCAAAUCAUGAAACUUGAACUAUUUUUCUAUUCCCUUUUUUUCUUCCCCAUUUGCUGCCUUUUUUGUUUUUGUGGGGGAAGGGUUGGGAGUAAGUUUAAACUCUUCCGAAGAUGGAAUUCUCGGGUGCCAA	0.753
GGGAGUUCUACAGUCCGACGAUCCAAGGAGAUGCUCUCCCCGGUCUUCUGCUGCAAUUUAGAUUCCUUUCCCUUCUCUCCAGUUCUCCUUCCCUUACCAAGGAGAGGGGAGCAAAUGGUUUUGGGCAAGGGCUUGGAAUUCUCGGGUGCCAA	0.249
GGGAGUUCUACAGUCCGACGAUCGAAGGCUGAGCACUUAUCUGGAUCAUUUGGUCAGUUUGGUAAUUCCUGCUCCACACCCCUAUUUUCCUCUUAAUAAUACGUUUGGGUGAAGACAAAUUAGUGUUUAGUAAUGGAAUUCUCGGGUGCCAA	0.379

Sample 2
Target: Centromere-binding protein 1, full length, His-tagged (CBF1, Saccharomyces cerevisiae, UniProt P17106, residues 1-351)
UniProt P17106, sequence (whole entry, looked up): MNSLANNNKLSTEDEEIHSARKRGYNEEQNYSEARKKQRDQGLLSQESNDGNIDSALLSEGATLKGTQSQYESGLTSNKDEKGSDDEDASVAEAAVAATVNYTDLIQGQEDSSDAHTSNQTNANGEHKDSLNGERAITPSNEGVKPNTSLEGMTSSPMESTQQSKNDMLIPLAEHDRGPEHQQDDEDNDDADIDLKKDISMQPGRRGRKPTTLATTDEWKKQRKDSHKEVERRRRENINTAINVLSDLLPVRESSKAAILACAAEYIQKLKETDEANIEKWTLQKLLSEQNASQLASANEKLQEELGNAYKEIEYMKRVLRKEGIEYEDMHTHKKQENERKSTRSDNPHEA
Technique: competition protein-binding microarray
Form: double-stranded DNA, one strand shown
Medium: in vitro
Concentration: 2 µM
Setting: whole 60-bp probe, lowest competitor level
Added: Pho4 competitor, 0.05 µM
Reading: higher = stronger binding
Strand	fluorescence intensity [a.u.]
CTTTCCCGATCTTGCTTTGTGGGTGTAGCACATTTGGTCTTGATTCGCTTGACGCTGCTG	65.9
GGTTTAACAGATCTGGACGTGATGGTTTTTTTTTTTGTCTTGATTCGCTTGACGCTGCTG	107
ACACTTATGTGGTTCACCGTGCCGATGCTGTGTTTAGTCTTGATTCGCTTGACGCTGCTG	57.3

Sample 3
Target: Histone acetyltransferase KAT6A, both winged helices, GST fusion (KAT6A, Homo sapiens, UniProt Q92794, residues 1-181)
Technique: protein binding microarray
Form: double-stranded DNA, one strand shown
Medium: in vitro
Concentration: not given
Setting: 8-mer, flanks averaged, mean of 2 arrays, mostly near background
Relative to: not given
Reading: higher = stronger binding
Target sequence (chain): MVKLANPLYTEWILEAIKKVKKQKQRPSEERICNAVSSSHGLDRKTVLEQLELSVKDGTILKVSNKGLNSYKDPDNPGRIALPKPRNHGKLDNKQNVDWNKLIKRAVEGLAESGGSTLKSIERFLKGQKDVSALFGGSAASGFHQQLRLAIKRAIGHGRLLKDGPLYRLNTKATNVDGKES
Strand	E-score
GGTAGTAC	-0.0309
ACAAGGCA	-0.226
ATTTCTCG	0.0362
GATCGTGC	0.0406

Sample 4
Substance: PhoQ, residues 284 288 289 292 302 303 TNASYF
Technique: Sort-seq
Refers to: YFP reporter
Medium: E. coli
Setting: PhoQ-PhoP variant library
Added: 10 µM Mg2+
Relative to: high Mg2+ state
Reading: higher = stronger signaling
target	fold induction
PhoP, residues 12 14 15 18 19 AYFRS (Escherichia coli, UniProt P23836)	3.48
PhoP, residues 12 14 15 18 19 SFCSL (Escherichia coli, UniProt P23836)	11
PhoP, residues 12 14 15 18 19 HHYTI (Escherichia coli, UniProt P23836)	11.6

Excerpt of the above (sample 1):
Strand	RBNS enrichment (R)
GGGAGUUCUACAGUCCGACGAUCGAAGGCUGAGCACUUAUCUGGAUCAUUUGGUCAGUUUGGUAAUUCCUGCUCCACACCCCUAUUUUCCUCUUAAUAAUACGUUUGGGUGAAGACAAAUUAGUGUUUAGUAAUGGAAUUCUCGGGUGCCAA	0.379
